Assay results gathered from unrelated publications.
Each numbered part is a random draw from the data of one study; scales do not carry over between parts.

Series 1
Cell line: HEK-293T/ACE2
Concentration: concentration not given
Time: 16 (unit not given)
Relative to: vehicle
Compound | viability [%]
O=C1CN2Cc3c(ccc(Cl)c3Cl)N=C2N1 | 103
Nc1nc2ncc(CNc3ccc(C(=O)N[C@@H](CCC(=O)O)C(=O)O)cc3)nc2c(=O)[nH]1 | 86.9
CC(=O)Nc1ccc(O)cc1 | 99
Nc1ccn(C[C@@H](CO)OCP(=O)(O)O)c(=O)n1 | 104

Series 2
Target: Replicase polyprotein 1ab, main protease (rep, Severe acute respiratory syndrome coronavirus 2, UniProt P0DTD1)
Effect on: enzyme activity
Action: inhibitor
Concentration: 20 µM
Notes: primary screen
SMILES | inhibition [%]
COC(=O)C(N)CS (centres unmarked) | 33
CS/C(N)=C(C#N)/C(C#N)=C(\N)SC | 53.3
C/C(=N\NC(=N)N)c1cc(NC(=O)CCCCCCCCC(=O)Nc2cc(/C(C)=N/NC(=N)N)cc(/C(C)=N/NC(=N)N)c2)cc(/C(C)=N/NC(=N)N)c1 | 25.7
CC1(C)C(=O)N=C2C1=C(O)C(=O)c1ccccc12 | 58.8

Series 3
Target: Hepatocyte nuclear factor 3-beta, forkhead domain (FOXA2, Homo sapiens, UniProt Q9Y261, residues 142-269)
Method: protein-binding microarray
Molecule type: double-stranded DNA, one strand shown
Matrix: in vitro
Concentration: not given
Notes: k-mer, scored over probes, only values ≥0.25
Reading: higher = stronger binding
Residues (chain): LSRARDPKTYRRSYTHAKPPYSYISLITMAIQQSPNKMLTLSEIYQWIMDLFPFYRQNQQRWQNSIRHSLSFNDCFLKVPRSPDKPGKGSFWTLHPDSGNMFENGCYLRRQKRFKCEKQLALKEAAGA
Strand | E-score
AATAACAG | 0.311
CAACAAAA | 0.28
CTCAAACA | 0.288
GATACACA | 0.302
AATTGTTA | 0.299
ATCAATTA | 0.299
ACACAAAG | 0.254
AGTATGAA | 0.281

Other studies, line by line
Compound | target | assay | system | conditions | measurement | value
CN(C)[C@@H]1C(O)=C(C(N)=O)C(=O)[C@@]2(O)C(O)=C3C(=O)c4c(O)cccc4[C@@](C)(O)[C@H]3[C@H](O)[C@@H]12 | Replicase polyprotein 1ab, nsp12 with nsp7/nsp8 (rep, Severe acute respiratory syndrome coronavirus 2, UniProt P0DTD1) | inhibitor | SARS-CoV-2 | 20 µM | inhibition | 106%

Some of these lines once more (series 3):
Strand | E-score
AATAACAG | 0.311
CAACAAAA | 0.28
